{"data": "Results of several laboratories", "cell line": "MCF7", "note": "Lines come from different studies, so protocols differ. Bridges are numbered along the chain shown (N, C = ends). Where no end group is shown, it is not given here."}
{"Molecule": "NNC(=O)Cn1c2ccccc2c2cn[nH]c(=O)c21", "assay": "RT-PCR, item: Bcl-2", "setting": "5 µM, 48 h, normalised to β-actin", "scale": "reference: untreated", "endpoint": "fold change", "value": 0.38}
{"Molecule": "CCCCCc1cc(O)c2c(c1)OC(C)(C)c1ccc(C)cc1-2", "assay": "cell growth or viability, MTT", "setting": "72 h", "endpoint": "IC50", "value": "44900 nM"}
{"Molecule": "O=[N+]([O-])c1ccc(N=NNc2cccc(O)c2)cc1", "assay": "cell growth or viability, LDH", "endpoint": "IC50", "value": "1510 nM"}
{"Molecule": "CN[C@@H]1C[C@H]2O[C@@](C)([C@@H]1OC)n1c3ccccc3c3c4c(c5c6ccccc6n2c5c31)C(=O)NC4", "assay": "annexin V/PI flow cytometry", "setting": "2.5 µM, 24 h", "endpoint": "necrotic cells", "value": "7.23%"}
{"Molecule": "COc1cc([C@@H]2c3cc4c(cc3[C@@H](O[C@@H]3O[C@@H]5CO[C@@H](C)O[C@H]5[C@H](O)[C@H]3O)[C@H]3COC(=O)[C@H]23)OCO4)cc(OC)c1O", "setting": "50 µM, 48 h", "endpoint": "cell death", "value": "10 to 30%"}
{"Molecule": "FFPKVAGVAAKVLKKFCTISKKC (disulfide 17-23 (inferred)) (disulfide)", "assay": "cell viability, MTT", "endpoint": "IC50", "value": "7190 nM"}
{"Molecule": "COC1=CC(=O)N(C(=O)[C@@H](OC(=O)[C@@H]2CCCN2C(=O)[C@@H]2CCCN2C(=O)[C@H](C(C)C)N(C)C(=O)[C@@H](NC(=O)[C@H](C(C)C)N(C)C)C(C)C)C(C)C)[C@H]1Cc1ccccc1", "assay": "cell growth or viability", "setting": "48 h", "endpoint": "IC50", "value": "0.19 nM"}
{"Molecule": "O=[N+]([O-])c1ccc(N=NNc2ccccc2O)cc1", "assay": "cell growth or viability, LDH", "endpoint": "IC50", "value": "1780 nM"}
{"Molecule": "C[C@H](NCCc1ccc(O)cc1)C(=O)c1ccc(OCc2ccccc2)cc1", "assay": "cell viability, MTT", "setting": "72 h", "endpoint": "IC50", "value": "13200 nM"}
{"Molecule": "N=C(N)NCCC[C@H](NC(=O)CNC(=O)[C@@H](N)Cc1ccc(O)cc1)C(=O)N[C@@H](CCCCN)C(=O)N[C@@H](CCCCN)C(=O)N[C@@H](CCCNC(=N)N)C(=O)N[C@@H](CCCNC(=N)N)C(=O)N[C@@H](CCC(N)=O)C(=O)N[C@@H](CCCNC(=N)N)C(=O)N[C@@H](CCCNC(=N)N)C(=O)N[C@@H](CCCNC(=N)N)C(=O)N[C@@H](CCCNC(=N)N)C(=O)N[C@@H](CC(N)=O)C(=O)N[C@@H](CCC(N)=O)C(=O)N[C@@H](CCCCN)C(=O)N[C@@H](Cc1ccccc1)C(=O)N[C@@H](CCCCN)C(=O)N[C@@H](CS)C(=O)NCC(=O)N[C@@H](CCC(=O)O)C(=O)O", "setting": "concentration not given, colony formation and migration", "endpoint": "cell proliferation", "value": "inhibited"}
{"Molecule": "COc1cc(/C=C\\c2cccc(B(O)O)c2)cc(OC)c1OC", "assay": "cell growth or viability, SRB", "setting": "48 h", "endpoint": "IC50", "value": "< 1000 nM"}
